Experimental data collected from several papers.
Compare with care: the assays were run in different laboratories.
Target: Focal adhesion kinase 1 (PTK2, Homo sapiens, UniProt Q05397)
Chain of UniProt Q05397 (whole entry, looked up): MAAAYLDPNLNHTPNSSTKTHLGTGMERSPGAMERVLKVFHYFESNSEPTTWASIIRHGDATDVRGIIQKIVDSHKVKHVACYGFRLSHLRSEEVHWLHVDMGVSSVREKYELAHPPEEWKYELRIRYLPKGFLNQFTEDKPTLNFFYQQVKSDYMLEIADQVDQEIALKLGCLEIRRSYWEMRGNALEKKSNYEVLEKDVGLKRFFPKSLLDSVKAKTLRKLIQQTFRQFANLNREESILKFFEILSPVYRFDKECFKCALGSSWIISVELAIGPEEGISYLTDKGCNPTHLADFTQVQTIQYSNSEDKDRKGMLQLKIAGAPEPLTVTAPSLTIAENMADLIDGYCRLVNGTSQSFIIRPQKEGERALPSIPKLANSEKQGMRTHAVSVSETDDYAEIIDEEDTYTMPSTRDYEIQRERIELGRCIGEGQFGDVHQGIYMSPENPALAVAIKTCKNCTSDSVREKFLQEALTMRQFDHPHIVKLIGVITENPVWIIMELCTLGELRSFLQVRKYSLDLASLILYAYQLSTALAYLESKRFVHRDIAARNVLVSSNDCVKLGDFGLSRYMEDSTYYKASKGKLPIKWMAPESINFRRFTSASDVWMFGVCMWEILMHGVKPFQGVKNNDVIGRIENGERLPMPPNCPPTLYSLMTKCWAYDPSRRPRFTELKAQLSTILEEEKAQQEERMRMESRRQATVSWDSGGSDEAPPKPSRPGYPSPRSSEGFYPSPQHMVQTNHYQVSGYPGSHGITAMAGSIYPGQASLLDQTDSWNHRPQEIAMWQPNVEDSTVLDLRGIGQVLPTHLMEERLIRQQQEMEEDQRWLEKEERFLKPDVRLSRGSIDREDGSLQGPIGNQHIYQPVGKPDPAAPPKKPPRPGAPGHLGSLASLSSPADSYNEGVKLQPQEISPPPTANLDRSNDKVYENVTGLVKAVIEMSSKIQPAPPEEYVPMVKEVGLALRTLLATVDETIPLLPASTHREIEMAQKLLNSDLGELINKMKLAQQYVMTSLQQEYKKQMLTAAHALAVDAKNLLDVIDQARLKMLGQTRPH

`COc1cc(F)ccc1-c1ncnc(Nc2cccc(C[S@](C)(=N)=O)c2)n1` gave a remaining activity of 91% (kinase activity; 10 µM, together with: 10 µM ATP).
For `CNC(=O)c1ccccc1Nc1cc(Nc2cc(C)c(C3CCN(CCCCCCNC(=O)COc4cccc5c4C(=O)N(C4CCC(=O)NC4=O)C5=O)CC3)cc2OC(C)C)ncc1C(F)(F)F` (centres unmarked), “concentration with observed degradation” read 10 nM (degrader, immunoblot; PaTu 8988t; 4 h).
The remaining binding of `C=CC(=O)N1CCC(COCC(=O)N2CCN(c3nc(-c4cnc(N)nc4C(F)F)nc(N4CCOC[C@@H]4C)n3)CC2)CC1` is reported as 100% (KINOMEscan; 1 µM).
`CNC(=O)c1ccccc1Nc1cc(Nc2ccc(N3CCN(CCCCCCNC(=O)COc4cccc5c4C(=O)N(C4CCC(=O)NC4=O)C5=O)CC3)cc2OC)ncc1C(F)(F)F` (centres unmarked) — result for “concentration with observed degradation”: 1 nM (degrader, immunoblot; PaTu 8988t; 4 h).
`CC[C@@H]1[C@H](F)C(=O)N[C@@H]1COc1nccc2cc(C(N)=O)c(OC)cc12` gave an inhibition of 25.4% (ATP probe binding, KiNativ profiling, item: Lys1 probe site; THP-1 cell lysate; 0.01 mM).
`CNc1ncc2c(/C=C/C(=O)N3CCC(OC)CC3)nn(Cc3cccc(C(F)(F)F)c3)c2n1` has a remaining activity of 93% (kinase activity, inhibitor; 1 µM; relative to: untreated control).
`C=CC(=O)N1CCC[C@@H](n2nc(-c3ccc(Oc4ccccc4)cc3)c3c(N)ncnc32)C1` gave a remaining activity of 158% (0.1 µM).
The remaining activity of `Cc1cc(Nc2cc(N3CCN(C)CC3)nc(Sc3ccc(NC(=O)C4CC4)cc3)n2)[nH]n1` is reported as 84% (kinase activity, KinaseProfiler; 0.03 µM, species human; relative to: control).

A few entries again:
`CNC(=O)c1ccccc1Nc1cc(Nc2ccc(N3CCN(CCCCCCNC(=O)COc4cccc5c4C(=O)N(C4CCC(=O)NC4=O)C5=O)CC3)cc2OC)ncc1C(F)(F)F` (centres unmarked) — result for “concentration with observed degradation”: 1 nM (degrader, immunoblot; PaTu 8988t; 4 h).
